Assay results of several laboratories.
A part holds a random share of what one study measured. Substitutions count along the parent as printed.

Study 1
Target: ABI1, truncated, D143A, DHFR fusion (Arabidopsis thaliana)
Technique: DHFR PCA, deep sequencing
Medium: yeast
Notes: methotrexate growth selection, single substitutions
With: (+)-ABA 2500 µM
Baseline: wild-type fitted maximum
Direction: higher = stronger binding
Starting sequence: PYL1, truncated, DHFR fusion (Arabidopsis thaliana); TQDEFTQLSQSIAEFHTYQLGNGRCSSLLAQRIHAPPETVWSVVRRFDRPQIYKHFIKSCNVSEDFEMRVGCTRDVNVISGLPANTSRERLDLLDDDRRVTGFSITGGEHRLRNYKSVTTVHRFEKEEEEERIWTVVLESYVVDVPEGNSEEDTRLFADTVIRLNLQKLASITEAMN; partner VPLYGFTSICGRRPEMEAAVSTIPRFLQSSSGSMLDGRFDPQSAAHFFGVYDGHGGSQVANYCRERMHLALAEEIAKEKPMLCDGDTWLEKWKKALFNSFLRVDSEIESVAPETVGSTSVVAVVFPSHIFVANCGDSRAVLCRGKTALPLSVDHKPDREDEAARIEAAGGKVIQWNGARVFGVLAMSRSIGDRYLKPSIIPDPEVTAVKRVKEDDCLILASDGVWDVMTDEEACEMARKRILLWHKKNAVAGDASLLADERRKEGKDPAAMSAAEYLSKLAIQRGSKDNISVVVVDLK
Change | relative binding score [%]
G81L | 42.7
L169T | 45
A175W | 90.5
E89R | -6.55
L8C | 97.6
I162L | 91
W134D | 106
R132A | 105
P36I | 90.2
R69T | 99.8
E151W | 93.8
H16R | 53.5
E4S | 92.8
D144T | 90.5
Q2T | 95.1
I57Q | 83.7
V43L | 101
D97A | 101
G71P | 85
D3F | 93.9
T1N | 98.5
G71I | 16.7
V40G | -7.59
N85R | 97.7
S63G | 97.1

Study 2
Target: Ras GTPase-activating protein-binding protein 1, RRM domain (G3BP1, Homo sapiens, UniProt Q13283)
Chain of UniProt Q13283 (whole entry, looked up): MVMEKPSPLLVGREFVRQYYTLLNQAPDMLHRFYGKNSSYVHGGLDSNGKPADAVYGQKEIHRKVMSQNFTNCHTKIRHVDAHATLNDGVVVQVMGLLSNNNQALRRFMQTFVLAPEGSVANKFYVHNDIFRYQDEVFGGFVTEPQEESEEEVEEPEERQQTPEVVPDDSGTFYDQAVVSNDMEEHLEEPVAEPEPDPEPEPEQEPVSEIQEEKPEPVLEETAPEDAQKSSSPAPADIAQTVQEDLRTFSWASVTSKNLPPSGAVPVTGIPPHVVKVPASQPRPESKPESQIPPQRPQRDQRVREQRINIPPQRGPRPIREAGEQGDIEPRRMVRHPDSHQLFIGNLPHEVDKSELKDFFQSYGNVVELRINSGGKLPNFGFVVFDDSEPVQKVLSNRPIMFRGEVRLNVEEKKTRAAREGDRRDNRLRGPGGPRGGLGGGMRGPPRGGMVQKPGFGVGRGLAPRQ
Technique: RNA Bind-n-Seq
Form: RNA
Medium: in vitro
Tested at: 1 µM
Notes: whole 134-nt RNA, ends assumed
With: 150 mM KCl
Baseline: input library
Direction: higher = stronger binding
Sequence | log2 enrichment
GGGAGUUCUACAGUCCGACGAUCUUCCUCAAGUCCUGUGCUACACAUCGUAUGUACCGAAUCGGUGGUGGGUGGAAAGUAUUAUGUUACGCCGUUCGGAUCUGCACUUCCAGCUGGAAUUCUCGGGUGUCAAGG | -0.17
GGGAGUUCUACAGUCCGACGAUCACCAUGCAGGUGGGCAUCUUUGGGAAGUGGGGAAAGGGGGGGAUAGGGAGGGGGGUAACACUUUGGGAACAGGUGGUCCCAGGUCGUUUCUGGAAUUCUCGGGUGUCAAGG | -0.436
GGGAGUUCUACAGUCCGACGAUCGUCCUGUGCUACACAUCGUAUGUACCGAAUCGGGAAAGGGUUUUUGGGUUUUUUUGGGAAAGUAUUAUGUUACGCCGUUCGGAUCUGCACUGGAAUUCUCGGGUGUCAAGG | 0.172
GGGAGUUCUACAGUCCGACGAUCGCAGGAAGUAAAAACAAAUGGAAAUGCUUCGGAUAGUGGCAGGGGUGGGGGUUGCUAAGGAAAGGGUGGGAUGGAAGUGGGUAAAGAGUUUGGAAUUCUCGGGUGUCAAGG | 1.01
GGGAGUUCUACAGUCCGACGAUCUAACUUUAGAGGAGGAUCUGAUGGAUAUGCCAGUGGACGUGGAUUUGGGGAUGGCUAUAAUGGGUAUGGAGGAGGACCUGGAGGUGGCAAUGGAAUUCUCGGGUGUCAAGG | -0.785
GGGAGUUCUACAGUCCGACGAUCGCAGGAAGUAAAAACAAAUGGAAAUGCUUCGGAUAGUGGCAGGGGUGGGGGUUGCUAAGGAAAGGGUGGGAUGGGAGUGGGUAAAGAGUUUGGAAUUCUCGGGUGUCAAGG | 1.22
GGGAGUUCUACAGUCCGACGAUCGUCCUGUGCUACACAUCGUAUGUACCGAAUCGGGGCCCCCGGGCCCCCGGCCCCCGGGGAAAGUAUUAUGUUACGCCGUUCGGAUCUGCAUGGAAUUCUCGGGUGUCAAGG | -0.616
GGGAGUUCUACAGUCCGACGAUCUCCUGUGCUACACAUCGUAUGUACCGAAUCGGGUUUUUUGGUUUUUUGGGUUUUUUGGGAAAGUAUUAUGUUACGCCGUUCGGAUCUGCAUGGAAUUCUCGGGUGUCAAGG | -0.111
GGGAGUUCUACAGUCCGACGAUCCAAGUCCUGUGCUACACAUCGUAUGUACCGAAUCGGGUUUUGGGUUUUGGUUUUGGAAAGUAUUAUGUUACGCCGUUCGGAUCUGCACUUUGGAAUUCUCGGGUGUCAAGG | -0.282
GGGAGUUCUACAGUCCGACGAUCGUCCUGUGCUACACAUCGUAUGUACCGAAUCGGGGUUUUUUUGGGGAAAGGGGAGGGGAAAGUAUUAUGUUACGCCGUUCGGAUCUGCACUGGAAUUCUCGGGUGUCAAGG | 0.879

Study 3
Target: RNA binding protein fox-1 homolog 2, RRM domain, GST-SBP tag (RBFOX2, Homo sapiens, UniProt O43251-10, residues 100-194)
Technique: RNA Bind-n-Seq
Form: RNA
Medium: in vitro
Tested at: 365 nM
Notes: natural RNA segment, single round, ends assumed
Baseline: no-protein control
Direction: higher = stronger binding
Target sequence (chain): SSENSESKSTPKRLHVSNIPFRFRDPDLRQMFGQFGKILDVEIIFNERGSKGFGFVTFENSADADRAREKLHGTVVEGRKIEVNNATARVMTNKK
Sequence | RBNS enrichment (R)
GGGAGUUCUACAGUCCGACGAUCGAUUUGGAAGGGGGGUUGGGUUGGGCUGGAUAUCUUUGUAGAUGUGGACCACCAAGGGGUUGUUGAAAACUAAUUGUAUUAAAUGUCUUUUGAUAAGCCUUCUGCUCACAUGGAAUUCUCGGGUGCCAA | 1.15
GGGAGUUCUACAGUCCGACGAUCAAACCAAGUCAACAGCCAUCAAGCAGAUAUAUCCCAGGCCGCCCAGGAUGUGUGUCCUCCCUUGUGGUGGGAGGCAUGAAUUCUGACCCCUGUGACUGUGCAGCCUGACCUGGAAUUCUCGGGUGCCAA | 0.383
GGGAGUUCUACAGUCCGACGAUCUUCUCACCAAACUUCAUGUAUAAAUAAAAUACAUAUUUUUAAAACAAACCAAUAAAUGGCUUACAUGCCUGGUCUAGGCUCUGUCCUUGUGCUGAGAUUUGACAAGAGUGUGGAAUUCUCGGGUGCCAA | 0.481
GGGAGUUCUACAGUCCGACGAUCCAUGUAAAUAUCUACAUACAGGGAUAUUUGUAUGUGUGGUUGUGAAACCCAUACACAAGUGGAUUUGGCCAUCUUUGGGCAGUGAGGUCAAAUGUGAAUAUGUGUAAAAGUGGAAUUCUCGGGUGCCAA | 0.535
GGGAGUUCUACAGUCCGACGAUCCUUUCUGAUCCCAGGAGCUCAGCUCGACUGUUAACAUCUGAAGCUUAUUCUCUUCCUUCCCGCUGGGGGGAGACGGCAUUAUCUUGUUCUGGGGCCUGACCCACCUUGGCUGGAAUUCUCGGGUGCCAA | 0.406
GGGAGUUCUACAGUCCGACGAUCAGUCCCUUGUCCAUGCUGCACUGGGGCAGGCCGGUUGUUUGUGGUUUGUCCUACCAGCCACAGCUCCAUAGACAGCAGCUGGCAGUAGAGCAAAAGUUGGGGAGAGGAUUUGGAAUUCUCGGGUGCCAA | 1.64
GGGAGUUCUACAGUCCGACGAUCGGUGCUGCGUGGGGCCCUCUCCAGCCCGUCCUACCCUGGGCUCACAUGGGGCCUGUGCCCACCCCUCUUGAGUGUCUUGGGGACAGCUCUUUCCACCCCUGGAAGAUGGAUGGAAUUCUCGGGUGCCAA | 0.484
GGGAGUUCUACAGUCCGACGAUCGGCAGAGGUAUGCUCCUGCUGUAAUCAGGCAAAUGAGUUCAACUGGAUUUCUUUUGACAAUACUGUUGGUACCUAUUACUUGGGGGAGGACAUGUUGCAGAAGACCAGAUUGGAAUUCUCGGGUGCCAA | 0.264
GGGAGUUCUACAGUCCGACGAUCGCUUCCUUCAUUUUACUUCCCCUUCUGUUUUUGAAAGGCAGUUUCGCCAAGCUUAAUGCAAGAAUAUCUGACUGUUUAGAAGAAAGAUAUUGCCACAAUCUCUGGAUGGUUGGAAUUCUCGGGUGCCAA | 0.281
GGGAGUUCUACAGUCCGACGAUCUAGUCCAGCCCUCUCGCAAUGGCUUGUGACUCACAGGAUUGCACCAUCCCCACUGCUAACUUGGGGCUGGGGCCUCCCUUUCACAGAUACCUUGGGUUUGUGCAUGUUUUUGGAAUUCUCGGGUGCCAA | 4.85
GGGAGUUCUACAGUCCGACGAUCGUUUGUAAUUCUUUGAUGUGCUACAAACCUGAAACUGGUAAGACAAGCACAAAGCAACGUGCAAUACAAAAAUCGUAUCUCAAGGGAAAAUACUCAAAGAAAGAAAAGUGUGGAAUUCUCGGGUGCCAA | 0.428
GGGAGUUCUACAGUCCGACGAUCUGCUGCAUACAGCGGGCACAGAUGCAUCUUGUUACAUGUAAGAAAAAGCUGUAUUUGAACAGAGCAUGCGUUUAAAGCCCUUAACAAAUUCAUCACAUAAUCUUAAAUUGUGGAAUUCUCGGGUGCCAA | 6.43

Study 4
Target: Sal-like protein 4, full length isoform B (SALL4, Homo sapiens, UniProt Q9UJQ4-2, residues 1-616)
Technique: universal PBM
Form: double-stranded DNA, one strand shown
Medium: in vitro
Tested at: not given
Notes: 8-mer, flanks averaged, mean of replicates
Direction: higher = stronger binding
Sequence | E-score
GACAAAGC | 0.0216
AGGTCATC | -0.155
AATCACAG | -0.0169
GATTTTCA | 0.283
AGATTCTC | -0.0183
AGGTTACA | 0.136
AGGCTCAG | -0.0699
CAATGGGA | -0.046
ACAGGCTC | -0.198
TATTAACA | 0.345
CTAGTTCC | -0.0472
CTAAGGAG | -0.175
TGAGCGCA | -0.177
CATATTTC | 0.412
ACATTTCT | 0.173
ATGCGAGG | -0.0211
ACTGCCCA | -0.195
ATGTCAGC | -0.152
CACCCATG | -0.00072
GAGCCCCC | -0.37
AGTCACAA | 0.0408
GTGCCCGA | -0.194
ACCACGCG | -0.209
CGGACTTC | -0.184
CCAAAGGA | -0.133

Excerpt of the above (study 3):
Sequence | RBNS enrichment (R)
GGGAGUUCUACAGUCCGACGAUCGGUGCUGCGUGGGGCCCUCUCCAGCCCGUCCUACCCUGGGCUCACAUGGGGCCUGUGCCCACCCCUCUUGAGUGUCUUGGGGACAGCUCUUUCCACCCCUGGAAGAUGGAUGGAAUUCUCGGGUGCCAA | 0.484
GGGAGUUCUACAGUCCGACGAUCUUCUCACCAAACUUCAUGUAUAAAUAAAAUACAUAUUUUUAAAACAAACCAAUAAAUGGCUUACAUGCCUGGUCUAGGCUCUGUCCUUGUGCUGAGAUUUGACAAGAGUGUGGAAUUCUCGGGUGCCAA | 0.481
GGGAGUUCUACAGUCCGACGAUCGAUUUGGAAGGGGGGUUGGGUUGGGCUGGAUAUCUUUGUAGAUGUGGACCACCAAGGGGUUGUUGAAAACUAAUUGUAUUAAAUGUCUUUUGAUAAGCCUUCUGCUCACAUGGAAUUCUCGGGUGCCAA | 1.15
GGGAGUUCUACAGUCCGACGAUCGCUUCCUUCAUUUUACUUCCCCUUCUGUUUUUGAAAGGCAGUUUCGCCAAGCUUAAUGCAAGAAUAUCUGACUGUUUAGAAGAAAGAUAUUGCCACAAUCUCUGGAUGGUUGGAAUUCUCGGGUGCCAA | 0.281
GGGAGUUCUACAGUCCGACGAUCUGCUGCAUACAGCGGGCACAGAUGCAUCUUGUUACAUGUAAGAAAAAGCUGUAUUUGAACAGAGCAUGCGUUUAAAGCCCUUAACAAAUUCAUCACAUAAUCUUAAAUUGUGGAAUUCUCGGGUGCCAA | 6.43
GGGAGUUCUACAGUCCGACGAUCCAUGUAAAUAUCUACAUACAGGGAUAUUUGUAUGUGUGGUUGUGAAACCCAUACACAAGUGGAUUUGGCCAUCUUUGGGCAGUGAGGUCAAAUGUGAAUAUGUGUAAAAGUGGAAUUCUCGGGUGCCAA | 0.535
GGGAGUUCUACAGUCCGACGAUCGUUUGUAAUUCUUUGAUGUGCUACAAACCUGAAACUGGUAAGACAAGCACAAAGCAACGUGCAAUACAAAAAUCGUAUCUCAAGGGAAAAUACUCAAAGAAAGAAAAGUGUGGAAUUCUCGGGUGCCAA | 0.428
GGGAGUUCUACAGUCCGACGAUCCUUUCUGAUCCCAGGAGCUCAGCUCGACUGUUAACAUCUGAAGCUUAUUCUCUUCCUUCCCGCUGGGGGGAGACGGCAUUAUCUUGUUCUGGGGCCUGACCCACCUUGGCUGGAAUUCUCGGGUGCCAA | 0.406
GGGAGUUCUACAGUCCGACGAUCAAACCAAGUCAACAGCCAUCAAGCAGAUAUAUCCCAGGCCGCCCAGGAUGUGUGUCCUCCCUUGUGGUGGGAGGCAUGAAUUCUGACCCCUGUGACUGUGCAGCCUGACCUGGAAUUCUCGGGUGCCAA | 0.383
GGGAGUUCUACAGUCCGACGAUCGGCAGAGGUAUGCUCCUGCUGUAAUCAGGCAAAUGAGUUCAACUGGAUUUCUUUUGACAAUACUGUUGGUACCUAUUACUUGGGGGAGGACAUGUUGCAGAAGACCAGAUUGGAAUUCUCGGGUGCCAA | 0.264
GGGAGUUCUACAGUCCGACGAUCAGUCCCUUGUCCAUGCUGCACUGGGGCAGGCCGGUUGUUUGUGGUUUGUCCUACCAGCCACAGCUCCAUAGACAGCAGCUGGCAGUAGAGCAAAAGUUGGGGAGAGGAUUUGGAAUUCUCGGGUGCCAA | 1.64
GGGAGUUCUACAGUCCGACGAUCUAGUCCAGCCCUCUCGCAAUGGCUUGUGACUCACAGGAUUGCACCAUCCCCACUGCUAACUUGGGGCUGGGGCCUCCCUUUCACAGAUACCUUGGGUUUGUGCAUGUUUUUGGAAUUCUCGGGUGCCAA | 4.85
